Measurements collected from several papers.
Numbered parts are unrelated; each lists some results of a single study. Several values in a cell are separate wells, animals, samples, runs or records.
UniProt Q05655, sequence (whole entry, looked up): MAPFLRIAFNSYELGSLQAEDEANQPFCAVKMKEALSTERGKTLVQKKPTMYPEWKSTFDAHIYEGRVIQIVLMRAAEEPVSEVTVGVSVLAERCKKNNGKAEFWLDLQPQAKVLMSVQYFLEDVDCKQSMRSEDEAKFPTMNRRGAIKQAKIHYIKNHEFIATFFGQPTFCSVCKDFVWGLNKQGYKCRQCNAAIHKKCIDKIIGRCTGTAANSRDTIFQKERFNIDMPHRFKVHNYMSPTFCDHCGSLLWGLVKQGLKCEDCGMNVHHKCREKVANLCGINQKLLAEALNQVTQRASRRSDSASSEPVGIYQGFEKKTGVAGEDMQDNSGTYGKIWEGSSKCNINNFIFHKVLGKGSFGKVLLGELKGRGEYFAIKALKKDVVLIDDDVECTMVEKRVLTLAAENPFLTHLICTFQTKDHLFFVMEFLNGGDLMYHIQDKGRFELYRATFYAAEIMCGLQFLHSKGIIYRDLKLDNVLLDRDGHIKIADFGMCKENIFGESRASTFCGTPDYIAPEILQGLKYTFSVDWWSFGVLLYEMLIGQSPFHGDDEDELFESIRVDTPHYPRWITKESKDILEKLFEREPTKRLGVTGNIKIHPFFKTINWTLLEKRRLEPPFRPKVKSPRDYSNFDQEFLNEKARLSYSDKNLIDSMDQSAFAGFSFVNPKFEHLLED
UniProt Q13131, sequence (whole entry, looked up): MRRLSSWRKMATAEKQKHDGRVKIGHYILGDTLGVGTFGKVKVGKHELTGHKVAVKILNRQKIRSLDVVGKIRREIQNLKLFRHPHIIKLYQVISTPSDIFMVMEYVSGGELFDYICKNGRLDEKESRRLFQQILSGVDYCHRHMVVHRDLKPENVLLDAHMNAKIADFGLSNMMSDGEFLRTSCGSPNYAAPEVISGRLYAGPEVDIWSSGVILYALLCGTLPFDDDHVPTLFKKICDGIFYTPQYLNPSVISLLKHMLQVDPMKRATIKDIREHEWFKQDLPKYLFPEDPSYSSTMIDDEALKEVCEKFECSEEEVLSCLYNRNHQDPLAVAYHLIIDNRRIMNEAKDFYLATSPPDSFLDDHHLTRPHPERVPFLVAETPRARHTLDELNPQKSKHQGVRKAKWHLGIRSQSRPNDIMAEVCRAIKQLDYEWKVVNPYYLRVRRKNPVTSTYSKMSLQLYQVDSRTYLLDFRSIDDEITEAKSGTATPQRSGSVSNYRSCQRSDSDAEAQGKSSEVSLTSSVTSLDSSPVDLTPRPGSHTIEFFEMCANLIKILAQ

Block 1
SMILES: COc1ccc2c(c1)O[C@@H](c1ccc(OC)c(OC)c1)C[C@H]2NC(=O)C1(c2ccc3c(c2)OC(F)(F)O3)CC1
Read-out: cell-free assay
Method: competition with immobilised ligand
Concentration: 1 µM
| target | remaining binding |
| --- | --- |
| Protein kinase C delta type (PRKCD, Homo sapiens, UniProt Q05655) | 100% |
| 5'-AMP-activated protein kinase catalytic subunit alpha-1 (PRKAA1, Homo sapiens, UniProt Q13131) | 80% |
| Vascular endothelial growth factor receptor 3 (FLT4, Homo sapiens, UniProt P35916) | 91% |
| Tyrosine-protein kinase ABL1, phosphorylated (ABL1, Homo sapiens, UniProt P00519, T315I) | 82% |
| Serine/threonine-protein kinase MARK1 (MARK1, Homo sapiens, UniProt Q9P0L2) | 100% |

Block 2
Target: DNA polymerase theta, ATPase domain (POLQ, Homo sapiens, UniProt O75417)
UniProt O75417, sequence (whole entry, unmodified, looked up): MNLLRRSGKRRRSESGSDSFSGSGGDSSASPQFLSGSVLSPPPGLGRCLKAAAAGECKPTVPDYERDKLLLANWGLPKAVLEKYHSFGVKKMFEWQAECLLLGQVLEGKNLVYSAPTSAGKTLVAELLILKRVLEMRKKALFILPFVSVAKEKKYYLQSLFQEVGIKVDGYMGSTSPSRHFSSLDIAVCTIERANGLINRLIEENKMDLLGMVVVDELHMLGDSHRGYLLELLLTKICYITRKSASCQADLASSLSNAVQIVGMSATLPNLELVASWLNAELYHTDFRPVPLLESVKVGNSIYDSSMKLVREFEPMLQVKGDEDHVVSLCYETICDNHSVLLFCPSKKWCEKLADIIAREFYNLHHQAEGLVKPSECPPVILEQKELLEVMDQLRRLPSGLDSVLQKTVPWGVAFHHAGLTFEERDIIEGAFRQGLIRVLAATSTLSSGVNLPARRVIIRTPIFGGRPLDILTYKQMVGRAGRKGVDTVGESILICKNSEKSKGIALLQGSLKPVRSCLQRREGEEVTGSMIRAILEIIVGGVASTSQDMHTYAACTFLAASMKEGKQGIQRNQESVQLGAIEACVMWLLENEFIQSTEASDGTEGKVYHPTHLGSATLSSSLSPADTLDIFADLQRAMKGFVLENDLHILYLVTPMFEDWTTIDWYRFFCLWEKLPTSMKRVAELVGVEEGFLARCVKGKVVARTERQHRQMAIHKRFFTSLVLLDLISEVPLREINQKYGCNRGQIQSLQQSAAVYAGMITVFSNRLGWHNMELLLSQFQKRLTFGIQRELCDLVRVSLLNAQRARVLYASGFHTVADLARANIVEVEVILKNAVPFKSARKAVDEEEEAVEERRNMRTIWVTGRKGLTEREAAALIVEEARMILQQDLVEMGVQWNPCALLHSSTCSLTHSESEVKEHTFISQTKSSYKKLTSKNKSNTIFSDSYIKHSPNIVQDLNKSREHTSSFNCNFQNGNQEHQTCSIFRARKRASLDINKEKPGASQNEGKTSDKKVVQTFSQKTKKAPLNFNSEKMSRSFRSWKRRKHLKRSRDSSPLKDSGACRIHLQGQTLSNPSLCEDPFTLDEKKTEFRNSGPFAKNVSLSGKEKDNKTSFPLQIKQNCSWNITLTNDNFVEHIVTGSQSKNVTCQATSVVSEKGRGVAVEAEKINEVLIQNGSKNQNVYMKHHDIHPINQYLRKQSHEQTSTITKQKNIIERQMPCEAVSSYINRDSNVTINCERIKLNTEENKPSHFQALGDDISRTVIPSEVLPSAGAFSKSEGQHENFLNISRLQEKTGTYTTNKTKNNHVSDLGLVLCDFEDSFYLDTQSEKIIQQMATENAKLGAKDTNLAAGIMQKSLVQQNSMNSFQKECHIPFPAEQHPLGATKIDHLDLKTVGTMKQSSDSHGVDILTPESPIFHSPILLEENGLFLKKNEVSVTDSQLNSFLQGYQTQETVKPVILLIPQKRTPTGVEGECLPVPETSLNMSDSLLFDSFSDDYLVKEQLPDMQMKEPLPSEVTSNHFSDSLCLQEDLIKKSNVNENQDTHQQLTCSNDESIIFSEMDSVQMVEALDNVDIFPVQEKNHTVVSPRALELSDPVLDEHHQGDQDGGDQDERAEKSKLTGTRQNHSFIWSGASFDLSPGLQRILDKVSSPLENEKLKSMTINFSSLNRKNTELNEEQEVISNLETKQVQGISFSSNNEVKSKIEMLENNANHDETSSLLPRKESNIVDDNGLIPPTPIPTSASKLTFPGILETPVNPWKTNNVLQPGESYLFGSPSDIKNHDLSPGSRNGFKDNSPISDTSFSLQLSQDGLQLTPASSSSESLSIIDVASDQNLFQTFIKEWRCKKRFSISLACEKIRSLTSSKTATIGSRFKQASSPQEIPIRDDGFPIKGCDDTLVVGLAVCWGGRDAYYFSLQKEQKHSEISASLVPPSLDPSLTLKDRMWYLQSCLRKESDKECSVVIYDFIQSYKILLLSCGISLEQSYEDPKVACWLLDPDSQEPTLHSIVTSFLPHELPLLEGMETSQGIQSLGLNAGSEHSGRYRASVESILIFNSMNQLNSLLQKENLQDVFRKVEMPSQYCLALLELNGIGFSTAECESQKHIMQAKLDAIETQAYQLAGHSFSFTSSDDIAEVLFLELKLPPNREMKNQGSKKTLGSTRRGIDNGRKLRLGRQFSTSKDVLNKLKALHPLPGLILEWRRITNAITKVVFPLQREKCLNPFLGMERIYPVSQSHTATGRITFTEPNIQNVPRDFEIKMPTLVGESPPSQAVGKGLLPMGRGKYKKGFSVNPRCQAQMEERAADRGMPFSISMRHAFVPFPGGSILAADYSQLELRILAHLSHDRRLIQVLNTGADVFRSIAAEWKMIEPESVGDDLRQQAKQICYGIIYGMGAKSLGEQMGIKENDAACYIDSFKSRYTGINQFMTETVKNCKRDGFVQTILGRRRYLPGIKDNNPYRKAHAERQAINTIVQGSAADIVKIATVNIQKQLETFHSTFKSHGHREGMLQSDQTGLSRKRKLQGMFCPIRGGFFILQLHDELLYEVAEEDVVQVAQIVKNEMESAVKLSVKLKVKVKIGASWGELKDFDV
Read-out: enzyme activity
Action: inhibitor
Concentration: 77 µM
Baseline: untreated
| SMILES | remaining activity |
| --- | --- |
| CO/N=C(\C(=O)N[C@@H]1C(=O)N2C(C(=O)O)=C(CSC(=O)c3ccco3)CS[C@H]12)c1csc(N)n1 | 91.1% |
| NC[C@@H]1O[C@@H](O[C@@H]2[C@@H](O[C@@H]3O[C@H](CO)[C@@H](O)[C@H]3O)[C@H](O)[C@@H](N)C[C@H]2N)[C@@H](N)[C@H](O)[C@H]1O | 102% |
| COc1c2ccoc2cc2oc(=O)ccc12 | 106% |
| O=c1[nH]cnc2c1ncn2[C@@H]1O[C@H](CO)[C@@H](O)[C@H]1O | 94.4% |
| O=C(CCCCCN1CCN(c2ccccc2-c2ccccc2)CC1)NC1CCCc2ccccc21 (stereo not shown) | 101% |
| C[C@]12CCC(=O)C=C1CC[C@@H]1[C@@H]2C(=O)C[C@@]2(C)[C@H]1CC[C@]2(O)C(=O)CO | 97.1% and 99.8% |
| Cc1c(OCC(F)(F)F)ccnc1C[S+]([O-])c1nc2ccccc2[nH]1 (stereo not shown) | 101% |

Block 3
Target: SRSF protein kinase 1 (SRPK1, Homo sapiens, UniProt Q96SB4)
UniProt Q96SB4, sequence (whole entry, looked up): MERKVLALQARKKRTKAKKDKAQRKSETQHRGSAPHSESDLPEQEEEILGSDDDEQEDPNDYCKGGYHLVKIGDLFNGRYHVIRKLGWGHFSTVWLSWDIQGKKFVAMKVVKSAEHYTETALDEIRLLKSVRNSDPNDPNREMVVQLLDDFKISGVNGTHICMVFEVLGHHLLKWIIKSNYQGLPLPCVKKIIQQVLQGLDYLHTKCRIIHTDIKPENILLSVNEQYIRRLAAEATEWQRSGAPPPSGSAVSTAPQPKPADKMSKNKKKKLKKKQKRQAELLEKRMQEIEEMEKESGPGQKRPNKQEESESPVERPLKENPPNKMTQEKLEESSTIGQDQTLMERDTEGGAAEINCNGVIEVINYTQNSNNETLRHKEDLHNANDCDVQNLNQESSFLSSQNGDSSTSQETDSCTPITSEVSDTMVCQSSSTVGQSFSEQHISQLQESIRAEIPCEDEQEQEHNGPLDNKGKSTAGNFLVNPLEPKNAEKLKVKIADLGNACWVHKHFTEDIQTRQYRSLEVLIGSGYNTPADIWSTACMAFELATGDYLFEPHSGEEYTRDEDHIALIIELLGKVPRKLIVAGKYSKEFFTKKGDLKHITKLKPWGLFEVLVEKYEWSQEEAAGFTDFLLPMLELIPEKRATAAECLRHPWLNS
Read-out: enzyme activity
Action: inhibitor
Concentration: 0.5 µM
Baseline: control
| SMILES | remaining activity |
| --- | --- |
| O=C1NC(=O)C(c2cn(CCCn3ccnc3)c3ccccc23)=C1Nc1ccccc1 | 99.5% |
| COc1cc2ncnc(Nc3ccc(Oc4ccccc4)cc3)c2cc1OC | 104% |
| OCC(O)CCON=C1C(c2c(O)[nH]c3ccccc23)=Nc2ccccc21 (stereo not shown) | 71.3% |
| CN(C)c1ccc(C=C2C(=O)Nc3ccccc32)cc1 | 95.4% |
| CC(C)[C@H](CO)Nc1nc(Nc2cc(N)cc(Cl)c2)c2ncn(C(C)C)c2n1 | 62.1% |
| Cc1cccc(-c2[nH]c(C(C)(C)C)nc2-c2ccc3c(c2)OCO3)n1 | 96.5% |
| Nc1[nH]nc2nc3ccccc3nc12 | 101% |
| NCCNc1ncc(C(N)=O)c(Nc2cccc(C(F)(F)F)c2)n1 | 94.5% |
| Cc1nc(-c2ccccc2)c(-c2ccncc2)o1 | 101% |
| Nc1ccc2ncnc(NCCc3ccc(Oc4ccccc4)cc3)c2c1 | 99.8% |
| Cn1sc(=O)n(Cc2ccccc2)c1=O | 89.8% |
| COc1ccc(C(=O)Nc2sc3c(c2C(N)=O)CCCC3)cc1OC | 82.6% |
| Cc1ccc(Nc2nccc(N(C)c3ccc4c(C)n(C)nc4c3)n2)cc1S(N)(=O)=O | 100% |
| CCOC(=O)c1c(C)[nH]c(/C=C2\C(=O)Nc3ccccc32)c1C | 95.4% |
| O=C(O)c1ccc2c3c1cccc3c(=O)n1c3ccccc3nc21 | 96.1% |

Block 4
Organism: Sarcocystis neurona
Read-out: parasite growth
Concentration: 10 µM
Time: 96 h
Setting: first screen
Baseline: untreated
| SMILES | log2 fold change |
| --- | --- |
| CNC(=C[N+](=O)[O-])NCCSCc1csc(CN(C)C)n1 | 0.0555 |
| CN(C)c1ccc(O)c2c1C[C@H]1C[C@H]3[C@H](N(C)C)C(O)=C(C(N)=O)C(=O)[C@@]3(O)C(O)=C1C2=O | -1.36 |
| CC1(C)S[C@@H]2[C@H](/N=C/N3CCCCCC3)C(=O)N2[C@H]1C(=O)O | 0.23 |
| Clc1ccc(COC(Cn2ccnc2)c2ccc(Cl)cc2Cl)cc1 (stereo not shown) | 0.06 |
| CC(=O)NCCCCCCNC(C)=O | -0.0126 |
| C=CCc1ccc(O)c(-c2ccc(O)c(CC=C)c2)c1 | -0.1 |
| CCOC(=O)[C@H](CCc1ccccc1)N[C@@H](C)C(=O)N1Cc2ccccc2C[C@H]1C(=O)O | 0.3 |

For quick reference, copied from above (block 1):
| target | remaining binding |
| --- | --- |
| Vascular endothelial growth factor receptor 3 (FLT4, Homo sapiens, UniProt P35916) | 91% |
| Tyrosine-protein kinase ABL1, phosphorylated (ABL1, Homo sapiens, UniProt P00519, T315I) | 82% |
| Protein kinase C delta type (PRKCD, Homo sapiens, UniProt Q05655) | 100% |
